# Experimental data of several laboratories.
# Parts stem from different laboratories: compare values within a part only. Substitutions count along the parent as printed.

# Sample 1
# Target: RNA binding protein fox-1 homolog 2, RRM domain, GST-SBP tag (RBFOX2, Homo sapiens, UniProt O43251-10, residues 100-194)
# Technique: RNA Bind-n-Seq
# Form: RNA
# Matrix: in vitro
# Concentration: 365 nM
# Setting: natural RNA segment, single round, ends assumed
# Reference: no-protein control
# Direction: higher = stronger binding
# Target sequence (chain): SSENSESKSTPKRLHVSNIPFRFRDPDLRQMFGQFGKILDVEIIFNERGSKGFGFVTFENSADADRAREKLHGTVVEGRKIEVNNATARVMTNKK
Oligonucleotide,RBNS enrichment (R)
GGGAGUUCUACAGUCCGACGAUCAUUUUUCUUCUAUUUAACGGAAAACUUGACUUUGGUGAAUGUGCAUUACUUCCUUUUAUUUUGCUCUUUAAAUAAUAAAAUUCAAGAAGCAUAUUCUAUGUGGAAUAGAUUGGAAUUCUCGGGUGCCAA,1.11
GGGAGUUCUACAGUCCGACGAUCACAACAAAAGCCGGCAGGCAUCUUUAAGGGCUAUGCCUAGGGAGACUACUAACAUGGAGAGAAUGCCGUGUAUACCUCACGUACUGUGUGCUUUAUAUUUGUAUAUACAUUGGAAUUCUCGGGUGCCAA,0.64
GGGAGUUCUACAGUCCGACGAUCGAAGACUCAGGAAUGGUGUGCAUUAUAAAUGACACACAUUGCCACUUGUGUAGAUAUUUUUAAGUUCUUUGGCUAAGUCCUCUCCUAACUGCCUGUCCUCUGGUUAGGCCUGGAAUUCUCGGGUGCCAA,0.956
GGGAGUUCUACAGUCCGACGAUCAUUAACAUCAUUGGUCAUUUUUAAAAAAAAGAAAAUAAGAAAAAACCGCAGAAGAAAUGCAUUCACACAGUCGCAGAGAUGCAGGCCUUGCCAGUGGUGUGCCGGGCGCGUGGAAUUCUCGGGUGCCAA,0.491
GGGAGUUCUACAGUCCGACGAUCGAAAGGGACAGAUAGCUUUCCAAGGACAUGAGACUGUGCAAAGCCUCUUUGCUGUUUCUCUGGGCUCCUGAGCAUACCAGGGGAAGUUCUAGAAACCGCAGCUGACAUCUUGGAAUUCUCGGGUGCCAA,0.289
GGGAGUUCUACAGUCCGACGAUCCCUGCUGUUAAAUAAAGAAUUUCCUUGUCUGAUUUCCUUUCAAUAAAAGUUUUUCUUUGUUUCAGGUUUCAGGUUUUCAGCCUAUAUUUCUUUAGAAUUUAGUGAGAAUUUGGAAUUCUCGGGUGCCAA,0.494
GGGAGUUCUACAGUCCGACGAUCUCUUCCAGUGCAAUGAAAUUCAUAUGGUGUCCCACCUUAUUUAAUGAUGGUACAAUUUAAAAUCUUAGUCAACUUCUGUAGAAAGUUUUCUCUAUGAAAGUAAAGCUGUUUGGAAUUCUCGGGUGCCAA,0.414
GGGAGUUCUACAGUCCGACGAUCUGGGAAUGGUAUAGGAUUGUCCCCAAGUGUCCAUGUAACUUUUGUUUUAACCUUUGCACCUUCUCAGUGCUGUAUGCGGCUGCAGCCGUCUCACCUGUUUCCCCACAAAGUGGAAUUCUCGGGUGCCAA,1.14

# Sample 2
# Target: CCNB3, cyclin fold, Cln2 fusion (human)
# Technique: yeast growth competition, sequencing
# Matrix: yeast
# Setting: weak parent motif
# Reference: not given
# Direction: higher = stronger binding
# Parent: INSM1 docking peptide (human); PKAIRKLHFEDEV
Variant,normalised enrichment score
I4E,0.021
I4M,0.399
E12S,0.383
K2S,0.604
H8Y,0.437
R5Q,0.0418
K2D,0.161
K6A,0.149
E10A,0.205
E10H,0.0672
I4G,-0.149
F9P,-0.119
F9D,-0.17
R5F,0.0317
I4L,0.6
F9I,-0.382
K2M,0.45
L7C,0.172
L7W,-0.201
K6E,0.0589
R5V,-0.184
K2I,0.353
L7D,-0.501
R5C,0.0786
E10R,0.105

# Sample 3
# Target: Centromere-binding protein 1, full length, N-terminal tag (CBF1, Saccharomyces cerevisiae, UniProt P17106, residues 1-351)
# UniProt P17106, sequence (whole entry, looked up): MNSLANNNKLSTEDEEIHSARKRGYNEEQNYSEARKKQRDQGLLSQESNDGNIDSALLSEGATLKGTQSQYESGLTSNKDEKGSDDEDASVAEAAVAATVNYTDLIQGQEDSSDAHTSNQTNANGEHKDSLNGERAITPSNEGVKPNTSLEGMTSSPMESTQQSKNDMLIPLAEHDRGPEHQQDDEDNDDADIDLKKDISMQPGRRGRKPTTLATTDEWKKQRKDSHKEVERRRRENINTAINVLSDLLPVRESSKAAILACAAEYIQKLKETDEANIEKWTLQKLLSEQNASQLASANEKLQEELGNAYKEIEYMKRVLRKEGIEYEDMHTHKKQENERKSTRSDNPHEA
# Technique: protein-binding microarray
# Form: double-stranded DNA, one strand shown
# Matrix: in vitro
# Concentration: 0.8 µM
# Setting: whole 60-bp probe, no competitor
# Direction: higher = stronger binding
Oligonucleotide,fluorescence intensity
CTACGTTTGTACAAGCACGACATACTAAGACATTTCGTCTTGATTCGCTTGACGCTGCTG,528 a.u.
CTAGTTAAGAATGGTCACGTCTTCCTTTGGCTTTTCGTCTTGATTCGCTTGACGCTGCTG,960 a.u.
GAAGTCGTTTAACGTCATGTAAGATTCCTAAGTTAGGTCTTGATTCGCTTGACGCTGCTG,518 a.u.
GAATGTCCAACCCATCTGGTGGTTGGGGTGTCCTAGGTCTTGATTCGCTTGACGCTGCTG,475 a.u.
GAAGTATAGATGAATCACGCTTGATTTGATGGATAGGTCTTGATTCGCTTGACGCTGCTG,620 a.u.
CTAACTGACTGGACTTGGGTCACAATTTGAATTTTCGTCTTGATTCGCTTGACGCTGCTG,582 a.u.
CTAGATGCCACAAGTACTCAGGTGTCCTATGAATTCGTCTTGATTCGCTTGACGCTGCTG,562 a.u.
CTAGAACGAGCAATCAATGTGATCAATTTGCCATTCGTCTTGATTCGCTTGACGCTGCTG,572 a.u.
TGTACGAAGCTATTATACGTGCCTATAGTAGTTAGGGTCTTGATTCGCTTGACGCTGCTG,501 a.u.
TGTACGAAGCTATACGCTCACATTATAGTAGTTAGGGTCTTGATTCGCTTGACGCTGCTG,517 a.u.
CCTAACTACTATAATCTGATGGTATAGCTTCGTACAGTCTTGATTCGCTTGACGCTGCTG,497 a.u.
GAAACGCTTACTGTGATCATTTGTTATAAGTGCTAGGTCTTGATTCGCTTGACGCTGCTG,545 a.u.
GAATGACGCCGGTCACACGCGGGTGCCTGATTCTAGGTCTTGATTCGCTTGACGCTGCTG,689 a.u.
GAATTGAGGAAATATCAGGTGTGCCAATACGTTTAGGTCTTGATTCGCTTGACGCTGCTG,599 a.u.
CTAGTCCGCGACAATCACGGGCCTATTTCTACTTTCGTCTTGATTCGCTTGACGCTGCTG,713 a.u.
CTATGCCTTACTCGGTATCACATGGAAAAGACCTTCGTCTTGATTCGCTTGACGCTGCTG,1240 a.u.
CTACCTAGATGACAGCATCACCCGGACTGAATATTCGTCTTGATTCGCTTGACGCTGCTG,507 a.u.
GAATTACACATAAAGTACGTGCCATTTATTTATTAGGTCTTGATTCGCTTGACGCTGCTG,559 a.u.
CTAACCAGCAGAAATAACGTGGTCAAGATGCACTTCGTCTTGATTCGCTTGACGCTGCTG,683 a.u.

# Sample 4
# Target: RING finger protein unkempt homolog, zinc fingers 1-6, GST-SBP tag (UNK, Homo sapiens, UniProt Q9C0B0, residues 30-357)
# Technique: RNA Bind-n-Seq
# Form: RNA
# Matrix: in vitro
# Concentration: not given
# Setting: RNA with constant flanks, human and mouse sites, ends assumed
# Reference: input RNA pool
# Direction: higher = stronger binding
# Construct (chain): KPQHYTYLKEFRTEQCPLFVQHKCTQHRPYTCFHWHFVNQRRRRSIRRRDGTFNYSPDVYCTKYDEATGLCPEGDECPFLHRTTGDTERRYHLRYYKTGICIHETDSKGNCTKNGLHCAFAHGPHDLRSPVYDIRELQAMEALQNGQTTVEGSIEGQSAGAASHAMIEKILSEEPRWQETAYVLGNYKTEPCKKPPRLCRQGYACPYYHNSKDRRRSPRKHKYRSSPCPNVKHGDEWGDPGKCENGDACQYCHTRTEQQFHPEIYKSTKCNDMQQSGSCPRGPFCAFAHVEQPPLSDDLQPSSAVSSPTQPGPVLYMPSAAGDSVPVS
Oligonucleotide,bound/input enrichment
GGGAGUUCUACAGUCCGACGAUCGAGUCUUCACCAACCACCUUACUUGCUACAAAGAAAAAUAUUGGACGAUUUCAUCCCUAUACUAGAUAUGAAAAUAUAACUUUCAAUUGCUGCAAUCACUGCCGGGGAGAACUGAUUGCCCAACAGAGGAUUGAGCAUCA,2.2 ratio
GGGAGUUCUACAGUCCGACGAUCUUCCACCUGUAUUAGUUAUCUAUUGCUGUGUAAAAAAUUACCCUAAAUUUAGUAUGUUAAAAUAGUAAACAUUAUCUGUCAGUUUCUGUGGGUUAAGAAUUUGGGAGUAGUUUAACAUGACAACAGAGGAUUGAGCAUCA,5.41 ratio
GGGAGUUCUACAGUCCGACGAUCUCUCCUGAUCUAAUGAGCUUUAUGAUGGAGUUGAAGAUGCUUUUGGAAGUUGCCUUAAAGAAUAGACAAGAGCUGUAUGCACUACCUCCUCCUCCCCAGUUCUACUCAAGCCUUAUUGAACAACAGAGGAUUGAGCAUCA,0.131 ratio
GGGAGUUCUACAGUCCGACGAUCCUCUUAAAAGCCCACAAAAAGGCUAUUCGUAGAGCCACAGUCAACACAUUUGGUUAUAUUGCAAAGGCCAUUGGCCCUCAUGAUGUAUUGGCUACACUUCUGAACAACCUCAAAGUUCAACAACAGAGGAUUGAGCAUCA,0.167 ratio
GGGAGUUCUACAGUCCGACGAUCGUUGACAACUCACAGGUGAUUAAGAAAGAGGAUUUAUGCAUUUCUCCAGGCAAGCUUGCUUGGGUUCUAUACUGUGACCUCAUUUGUCUAGACUACGAUGGGAACAUUUUGGAUGCCUGCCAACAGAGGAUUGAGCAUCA,0.301 ratio
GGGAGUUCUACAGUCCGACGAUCGCAGCUAUUCCGCAUGCAGCAGAAGAUAUUCAAGGAGAUGACCGAUGGAUGUCUCAGCACAACAGAUUUGUUUUGGACUGUAAAGACAAAGAGCCUGAUGUACUGUUCGUGGGAGACUCCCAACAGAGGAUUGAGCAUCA,0.279 ratio
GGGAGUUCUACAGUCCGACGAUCCUCCUGGCCCCCAUUAGAUUGCUUUCUUUCUCCAGCGCAGGGUCGUGAUGUGUCCGUCUAAAUAGCGUUUUGCAUUAUUUCUAGAUGAGUGCAACUGUCAAAGCAAUAUGGCUUCAGCGGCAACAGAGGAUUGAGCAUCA,1.39 ratio
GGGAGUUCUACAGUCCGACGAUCUAGAUCUGAUCGAGUUAAGAGUGUGGAUCUGCAUCCUACAGAGCCAUGGAUGUUGGCAAGUCUUUACAAUGGCAGUGUGUGUGUUUGGAAUCAUGAAACACAGACACUGGUGAAGACAUUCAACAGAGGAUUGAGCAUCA,0.0568 ratio

# Some of these lines once more (sample 3):
Oligonucleotide,fluorescence intensity
GAAGTCGTTTAACGTCATGTAAGATTCCTAAGTTAGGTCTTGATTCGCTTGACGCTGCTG,518 a.u.
TGTACGAAGCTATTATACGTGCCTATAGTAGTTAGGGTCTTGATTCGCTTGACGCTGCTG,501 a.u.
GAATTGAGGAAATATCAGGTGTGCCAATACGTTTAGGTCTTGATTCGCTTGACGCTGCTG,599 a.u.
GAAGTATAGATGAATCACGCTTGATTTGATGGATAGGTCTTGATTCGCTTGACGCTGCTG,620 a.u.
CCTAACTACTATAATCTGATGGTATAGCTTCGTACAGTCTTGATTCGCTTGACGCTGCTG,497 a.u.
